# Assay results pooled from the literature.
# Every numbered part comes from another study and shows a few of its results, in no order.

# Block 1
# Target: Fragile X messenger ribonucleoprotein 1, C-terminal low-complexity region (Fmr1, Mus musculus, UniProt P35922)
# Technique: RNA Bind-n-Seq
# Form: RNA
# Medium: in vitro
# Tested at: 200 nM
# Notes: whole 134-nt RNA, ends assumed
# Together with: 150 mM KCl
# Baseline: input library
# Reading: higher = stronger binding
Sequence,log2 enrichment
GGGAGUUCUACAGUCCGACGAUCUAACUUUAGAGGAGGAUCUGAUGGAUUUGGCAGUGGACGUGGAUUUGGGGAUGGCUAUAAUGGGUAUGGAGGAGGACCUGGAGGUGGCAAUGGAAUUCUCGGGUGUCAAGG,0.276
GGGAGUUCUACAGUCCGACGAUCCUCAAGUCCUGUGCUACACAUCGUAUGUACCGAAUCGGGGUGGGGUGGGUGGGAAAGUAUUAUGUUACGCCGUUCGGAUCUGCACUUCCAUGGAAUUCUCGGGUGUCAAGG,1.3
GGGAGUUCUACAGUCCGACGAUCAGUCCUGUGCUACACAUCGUAUGUACCGAAUCGGAAAAGGGGAAAAGGGGAAAAGGGAAAGUAUUAUGUUACGCCGUUCGGAUCUGCACUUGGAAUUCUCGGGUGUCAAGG,0.0906
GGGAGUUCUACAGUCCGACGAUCUACUGCUCCUCAGCAGGAAGCGGAUGCUGAGGUGAACACAGAAACACUAAAUAAGUCCUCCCAGGGGAGCUCCUCGAGCACACAAUCAGCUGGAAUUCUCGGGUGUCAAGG,0.46
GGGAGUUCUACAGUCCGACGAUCCAAGUCCUGUGCUACACAUCGUAUGUACCGAAUCGGGAAAGGGUUUUUGGGUGGGAAAGUAUUAUGUUACGCCGUUCGGAUCUGCACUUCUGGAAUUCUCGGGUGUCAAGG,0.9
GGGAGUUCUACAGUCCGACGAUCCCUGUGCUACACAUCGUAUGUACCGAAUCGGGGCCCCCCGGGCCCCCCGGCCCCCCGGGGAAAGUAUUAUGUUACGCCGUUCGGAUCUGCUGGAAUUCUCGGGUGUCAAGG,-0.728
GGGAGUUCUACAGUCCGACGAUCUCCUCAAGUCCUGUGCUACACAUCGUAUGUACCGAAUCGGAGGAGGAGGGGAAAGUAUUAUGUUACGCCGUUCGGAUCUGCACUUCCAGCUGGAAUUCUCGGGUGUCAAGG,-0.373
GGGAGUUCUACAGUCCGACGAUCGUCCUGUGCUACACAUCGUAUGUACCGAAUCGGGGAAAAAGGGGAAAAAGGGGAGGGGAAAGUAUUAUGUUACGCCGUUCGGAUCUGCACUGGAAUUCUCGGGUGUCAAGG,0.534
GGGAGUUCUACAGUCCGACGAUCGUCCUGUGCUACACAUCGUAUGUACCGAAUCGGGGAGGGGAAAAAAAGGGGUUUGGGGAAAGUAUUAUGUUACGCCGUUCGGAUCUGCACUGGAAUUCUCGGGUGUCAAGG,0.445
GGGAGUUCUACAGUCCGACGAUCAGUCCUGUGCUACACAUCGUAUGUACCGAAUCGGGUUUGGGAAAAAAAGGGUUUGGGAAAGUAUUAUGUUACGCCGUUCGGAUCUGCACUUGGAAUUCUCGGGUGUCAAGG,0.467
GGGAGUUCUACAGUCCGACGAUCUCCUCAAGUCCUGUGCUACACAUCGUAUGUACCGAAUCGGAGGAAAGGUGGAAAGUAUUAUGUUACGCCGUUCGGAUCUGCACUUCCAGCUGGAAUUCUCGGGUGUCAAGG,-0.592
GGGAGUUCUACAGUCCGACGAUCACCAGGCAGGUGGGCAUCUUUGGGAAGUGGGGCAAGGGGGGGAUAGGGAGGGGGGUAACACUUUGGGAACAGGUGGUCCCAGGUCGUUUCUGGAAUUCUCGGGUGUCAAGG,0.842
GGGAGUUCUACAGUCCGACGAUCUAACUUUAGAGGAGGAUCUGAUGGAUAUGGCAGUGGACGUGGAUUUGGGCAUGGCUAUAAUGGGUAUGGAGGAGGACCUGGAGGUGGCAAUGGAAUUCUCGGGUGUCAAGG,0.114
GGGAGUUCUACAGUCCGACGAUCUCAAGUCCUGUGCUACACAUCGUAUGUACCGAAUCGGUUUGGUUUGGGUUUGGGGAAAGUAUUAUGUUACGCCGUUCGGAUCUGCACUUCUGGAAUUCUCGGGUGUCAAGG,-0.355

# Block 2
# Target: RING finger protein unkempt homolog, zinc fingers 1-6, GST-SBP tag (UNK, Homo sapiens, UniProt Q9C0B0, residues 30-357)
# UniProt Q9C0B0, sequence (30-357, looked up): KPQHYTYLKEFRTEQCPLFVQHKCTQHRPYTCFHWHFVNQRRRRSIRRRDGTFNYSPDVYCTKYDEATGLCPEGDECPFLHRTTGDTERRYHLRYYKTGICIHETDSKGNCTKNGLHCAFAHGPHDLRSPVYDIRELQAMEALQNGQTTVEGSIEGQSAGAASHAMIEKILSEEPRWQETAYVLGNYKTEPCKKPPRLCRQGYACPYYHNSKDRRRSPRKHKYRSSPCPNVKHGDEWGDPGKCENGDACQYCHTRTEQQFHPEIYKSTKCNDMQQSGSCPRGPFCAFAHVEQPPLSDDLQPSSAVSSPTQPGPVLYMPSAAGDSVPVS
# Technique: RNA Bind-n-Seq
# Form: RNA
# Medium: in vitro
# Tested at: not given
# Notes: RNA with constant flanks, ends assumed
# Baseline: input RNA pool
# Reading: higher = stronger binding
Sequence,bound/input enrichment [ratio]
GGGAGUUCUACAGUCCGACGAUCCGUGGAGAUGCAGACCAGGCCAGUAACAUUUUGGCCAGCUUUGGUCUGUCUGCUAGAGACUCCGAUGAACUGAGUCGUUAUCCAGAGGACAAGAUUACUCCUGAGAAUUUGCCCCAAAUCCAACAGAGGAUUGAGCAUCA,0.0793
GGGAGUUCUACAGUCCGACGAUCACAGAGCCCCCCUACACAGCAUACGUAGGAAAUCUACCUUUCAAUACGGUUCAGGGCGACACCGAUGCUAUCUUUAAGGAUCUCAGCAUAAGGAGUGUACGGCUAGUCAGAGACAAAGACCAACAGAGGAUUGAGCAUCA,0.224
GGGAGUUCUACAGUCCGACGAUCAAGACAUCACUCAUGAACCAGUAUGUGAAUAAGAAAUUCAGCAAUCAGUACAAAGCCACAACCGGAGCUGACUUUCUGACCAAGGAGGUGAUGGUGGAUGACAGGCUAGUCACAAUGCAGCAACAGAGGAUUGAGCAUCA,0.202
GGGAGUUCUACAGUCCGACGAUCUAUGUUUACGGAGUCCUGUUUAGUUUGGCAGAAAGCAGAAAGAAAACUGAGAGACUUGCUUUCCGAAAGAACAGACUUCCACCAGAAUUUUCACCAGUGAUCAUUAAAGAAUGGGCAGCUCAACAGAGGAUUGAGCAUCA,0.589
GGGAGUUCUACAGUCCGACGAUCUGGCGUUUCAGCAACAUGAAACAGUGGAAUGUCAACUGGGAAAUCAAAAUGGUCACCGCCGAGUUUGCAGAUGAAGUACGAUUGUCCUUCAUUUGUACUGAAGUAGAUUGCAAAGUGGUUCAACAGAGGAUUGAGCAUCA,0.26
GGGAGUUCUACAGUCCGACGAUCCUGAAGCCCAUGUUGCAGCGGGACUUUAUUACCGCUUUACCAGAGCAAGGCUUAGAUCACACCGCAGAAAACAUUCUUUCGUACCUGGAUGCCAGGUCUCUGUGUGCAGCAGAGCUGGUACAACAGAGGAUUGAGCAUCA,0.11

# Block 3
# Target: Centromere-binding protein 1, full length, His-tagged (CBF1, Saccharomyces cerevisiae, UniProt P17106, residues 1-351)
# UniProt P17106, sequence (whole entry, looked up): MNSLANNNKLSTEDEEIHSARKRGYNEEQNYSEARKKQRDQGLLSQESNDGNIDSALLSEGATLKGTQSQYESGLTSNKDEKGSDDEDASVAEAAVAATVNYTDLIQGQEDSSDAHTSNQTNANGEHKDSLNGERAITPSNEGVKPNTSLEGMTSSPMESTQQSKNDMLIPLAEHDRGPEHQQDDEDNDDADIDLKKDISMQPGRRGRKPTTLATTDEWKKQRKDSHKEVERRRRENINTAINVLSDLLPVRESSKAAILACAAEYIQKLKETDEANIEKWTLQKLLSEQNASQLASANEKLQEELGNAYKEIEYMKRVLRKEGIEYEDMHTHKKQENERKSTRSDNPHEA
# Technique: competition protein-binding microarray
# Form: double-stranded DNA, one strand shown
# Medium: in vitro
# Tested at: 2 µM
# Notes: whole 60-bp probe, lowest competitor level
# Together with: Pho4 competitor, 0.05 µM
# Reading: higher = stronger binding
Sequence,fluorescence intensity [a.u.]
AGGCCTATCTTCTCACGCCTGAGGAACCTGCCAAGAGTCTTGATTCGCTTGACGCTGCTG,62.4
CTGTCGGCCCAGTTCCACGTTCATCGCAACTATCAAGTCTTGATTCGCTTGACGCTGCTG,72.9
TTGCCATCTGTCCGTCACACTTTGTTCAACAACTACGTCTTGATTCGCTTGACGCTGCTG,84.4
TCGGTAGGGCCATCTCGCGTGCCAGAACAGACAAGAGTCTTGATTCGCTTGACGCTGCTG,89.3
TTGTCTCATATTACCCACGTGGAAGGCGCCCAACATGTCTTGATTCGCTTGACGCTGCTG,655
CGGGGTTAAGTTTGTCAAGTGGGTGGCTTGCAGCAGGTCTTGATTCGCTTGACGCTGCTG,83.2
TCATCTCTAAGAGTTGCCGTGCCGATCCATCCGCTTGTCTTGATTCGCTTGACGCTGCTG,68.5
TGCGCAACAACTTGACAAGTGGGTGTATGTCTAGAAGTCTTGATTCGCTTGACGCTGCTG,82
GATTATTGGCCAAGTACCGTGACGGTGGTAAGATTGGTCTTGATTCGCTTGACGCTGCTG,141
CATACCCAACCTTGTACCGTGGGTGAAGATATTTGTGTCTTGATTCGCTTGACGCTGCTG,70.7
AAGCATGGTGCCGTTCACATGTCCACCTACTTGAAGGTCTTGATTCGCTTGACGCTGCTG,169
GTCTTGTCTCATTTACACGTGTTTTTCCCCACTTCAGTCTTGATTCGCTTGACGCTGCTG,998
CTTTCCCGATCTTGTCACGACACTTTAGCACATTTGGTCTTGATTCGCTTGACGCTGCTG,262
CTTGCGATTCCTCTCCTCGTGAGAGGAGATACCGTTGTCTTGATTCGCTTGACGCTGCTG,89
CTTTCCCGATCTTGTCACCATACTTTAGCACATTTGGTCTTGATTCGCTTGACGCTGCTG,78.4
CTGCCTTTATTTATTACCGTGCCAGACAAAGGGGCTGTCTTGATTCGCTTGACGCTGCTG,79.3
CGTCCTAGCGATTGACCAGTGGGTGCCATGAGGAAGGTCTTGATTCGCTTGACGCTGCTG,68.9
TTGCGGGTATCGTTGCCCGTGTCCTTGTCAATGAAGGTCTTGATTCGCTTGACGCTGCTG,71.3
CTTCTGTAAATTTTACACGTGTTTTGACGCGCCCCGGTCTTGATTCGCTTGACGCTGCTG,1010
CGTCCTAGTGATTGTACAGTGGGTGCCATGAGGAAGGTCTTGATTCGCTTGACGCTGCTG,82.4
CCGCTCGCCCATTCGCACATGGCTTCTCAAGGATCGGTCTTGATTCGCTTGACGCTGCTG,69.5
GGCCGCGGAGCGCTGAACGTGATGGTCCATTGTATGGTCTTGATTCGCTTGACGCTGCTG,110
ATCAACATCGGCCTCCCCGTGCTAATATGTTAACAGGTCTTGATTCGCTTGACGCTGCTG,121
CATGCTGTTTTAGCGCGCGTGATGGGGACATAGATGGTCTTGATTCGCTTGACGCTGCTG,194

# Block 4
# Target: UBE2C UBC core domain (UniProt O00762)
# Technique: yeast two-hybrid
# Medium: yeast
# Notes: mostly zero background
# Baseline: not given
# Reading: higher = stronger interaction
# B1: TRIM69 RING domain (UniProt Q86WT6); chain VIQDITMELHCPLCNDWFRDPLMLSCGHNFCEACIQDFWRLQAKETFCPECKMLCQYNNCTF
# B2: ZNF598 RING domain (UniProt Q86UK7); chain AAAPERGGGSCVLCCGDLEATALGRCDHPVCYRCSTKMRVLCEQRYCAVCREELRQVVFGK
# B3: PHF21A RING domain (UniProt Q96BD5); chain SPTSTDGDIHEDFCSVCRKSGQLLMCDTCSRVYHLDCLDPPLKTIPKGMWICPRCQDQMLKKEEAIPW
# B4: CUL9 RING domain (UniProt Q8IWT3); chain AQAVPVRPDHCPVCVSPLGCDDDLPSLCCMHYCCKSCWNEYLTTRIEQNLVLNCTCPIADCPAQPTGAFIR
# Residues (chain): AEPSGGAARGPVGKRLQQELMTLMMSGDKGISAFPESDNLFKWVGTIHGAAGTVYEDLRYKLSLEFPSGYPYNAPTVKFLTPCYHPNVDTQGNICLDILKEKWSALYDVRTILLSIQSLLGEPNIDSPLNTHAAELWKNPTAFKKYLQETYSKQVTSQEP
Molecule,lacZ reporter activity
B1 (TRIM69 RING domain),0
QLRRLQEERTCKVCMDKEVSVVFIPCGHLVVCQECAPSLRKCPICRGIIKGTVRTF (BIRC2 RING domain (UniProt Q13490)),0
B2 (ZNF598 RING domain),0
PEELQAMDNVCIICREEMVTGAKRLPCNHIFHTSCLRSWFQRQQTCPTCRMDVLRASLPA (SYVN1 RING domain (UniProt Q86TM6)),0
DAIPSLSECQCGICMEILVEPVTLPCNHTLCKPCFQSTVEKASLCCPFCRRRVSSWTRYH (RNF168 RING domain (UniProt Q8IYW5)),0
B3 (PHF21A RING domain),0
FPEHFVKSISCQICEHILADPVETNCKHVFCRVCILRCLKVMGSYCPSCRYPCFPTDLES (RAG1 RING domain (UniProt P15918)),0
B4 (CUL9 RING domain),0
KTLSRFGIQPCSICLGDAKDPVCLPCDHVHCLRCLRAWFASEQMICPYCLTALPDEFSPA (RNF213 RING domain (UniProt Q63HN8)),0

# A few entries again (block 3):
Sequence,fluorescence intensity [a.u.]
CTTTCCCGATCTTGTCACCATACTTTAGCACATTTGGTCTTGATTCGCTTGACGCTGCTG,78.4
CTGCCTTTATTTATTACCGTGCCAGACAAAGGGGCTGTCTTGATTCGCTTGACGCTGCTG,79.3
CGTCCTAGCGATTGACCAGTGGGTGCCATGAGGAAGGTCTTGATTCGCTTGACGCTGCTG,68.9
TTGCGGGTATCGTTGCCCGTGTCCTTGTCAATGAAGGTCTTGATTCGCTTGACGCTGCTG,71.3
CTTCTGTAAATTTTACACGTGTTTTGACGCGCCCCGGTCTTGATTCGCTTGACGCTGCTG,1010
